# Measurements of several laboratories.
# Compare with care: the assays were run in different laboratories. Values joined by “and” are separate records of one study, mostly repeats; a detail may differ. ± gives the spread as reported.
SMILES,target or system,assay,system,conditions,how to read,endpoint,result
NC(=O)NO,human coronavirus OC43,virus-induced cell killing,MRC-5,screen,,maximum inhibition,31.7%
C[C@]12CC[C@H]3[C@@H](CC=C4CC(O)CC[C@@]43CO)[C@@H]1CCC2O (stereo partly drawn),,,GAN diet MASH rats,"ip, 20 mg/kg, two weeks",reference: GAN vehicle,plasma TAG level,decreased
CCCCNCCc1c[nH]c2cccc(O)c12.O=C(O)/C=C/C(=O)O,,,C57BL/6J mice,"subcutaneous, 0.3 mg/kg",reference: pre-session baseline,body temperature change,-0.2 ± 0.1 °C
Cc1cn(-c2cc(NC(=O)c3ccc(C)c(Nc4nccc(-c5cccnc5)n4)c3)cc(C(F)(F)F)c2)cn1,,,Alzheimer's disease patients,"dose not given, baseline, group mean",direction not given,CDR-SOB score,5.2 ± 1.9
CCCNCCc1c[nH]c2cccc(O)c12.CCCNCCc1c[nH]c2cccc(O)c12.O=C(O)/C=C/C(=O)O,,,C57BL/6J mice,"subcutaneous, 10 mg/kg",reference: pre-session baseline,body temperature change,-0.9 ± 0.3 °C
COc1cc(CCNC(C)c2ccccc2O)c(OC)cc1Br.Cl (stereo not drawn),"5-HT2A L123V mutant, human","Gq dissociation, BRET",,,reference: wild-type 5-HT2A,fold loss in potency,42 fold
COc1ccc2c(c1)[nH]c1c(C)nccc12,DU-145,"bisulfite pyrosequencing, item: RASSF1A promoter CpG site 11",,"10 µM, 16 h",,DNA methylation,80.6%
COc1ccc(CN2CCNCC2)c(OC)c1OC,Nedd8-cullin1 interaction,"neddylation, AlphaScreen",,100 µM,,inhibition,26.3%
CCCCC1(CCCC)CN(c2ccccc2)c2cc(SC)c(OCC(=O)N[C@@H](C(=O)NCC(=O)O)c3ccccc3)cc2S(=O)(=O)C1,,item: HDL cholesterol,"human, serum","15 mg once daily, day 1",,serum HDL-C,45.4 mg/dL
O=C(O)/C=C/C(=O)O.Oc1cccc2[nH]cc(CCNC3CCCCC3)c12,,,C57BL/6J mice,"subcutaneous, 0.3 mg/kg",reference: pre-session baseline,body temperature change,0.1 ± 0.1 °C
Cc1cc(C)nc(NC(=S)N2CCN(Cc3ccc(C(F)(F)F)cc3)CC2)c1,human coronavirus OC43,virus-induced cell killing,MRC-5,screen,,maximum inhibition,14%
OC(Cn1cncn1)(Cn1cncn1)c1ccc(F)cc1F,Saccharomyces cerevisiae,cell growth,"Pdr5 deleted, empty vector",2^-2.322 µg/mL,,OD600,1.03 and 1 and 1.02
COc1cc(CCC[P+](c2ccccc2)(c2ccccc2)c2ccccc2)c(OC)c2c1OCO2.[I-],ACHN,SRB,,,,LC50,> -4 log M
CN1CCN(S(=O)(=O)c2cc([N+](=O)[O-])ccc2N(CCOS(C)(=O)=O)CCOS(C)(=O)=O)CC1,,,"NSG mice, sample CF PDX","intraperitoneal, 25 mg/kg weekly x3",,event-free survival,166 days
COc1c(CCC[P+](c2ccccc2)(c2ccccc2)c2ccccc2)cc2c(c1OC)OCO2.[I-],SW-620,SRB,,,,GI50,-5.71 log M
C=CCNCCc1c[nH]c2cccc(O)c12.C=CCNCCc1c[nH]c2cccc(O)c12.O=C(O)/C=C/C(=O)O,,,C57BL/6J mice,"subcutaneous, 10 mg/kg",reference: pre-session baseline,body temperature change,-1.1 ± 0.2 °C
C[C@]1(O)CC[C@H]2[C@@H]3CCC4=CC(=O)CC[C@]4(C)[C@@]3(F)[C@@H](O)C[C@@]21C,THP-1,pyroptotic LDH release,,"2 µM, 40 min, together with: LPS then nigericin",,inhibition,-1.28%
CC[C@H](C)[C@@H]1NC(=O)[C@@H]2CCCN2C(=O)[C@H](CC(C)C)NC(=O)[C@H](CC(C)C)NC(=O)CNC(=O)[C@@H](NC(=O)[C@@H](NC(=O)[C@H](CC(=O)O)NC(=O)CNC(=O)[C@@H](NC(=O)[C@H](C)NC(=O)CNC(=O)[C@H](CCCCN)NC(=O)[C@H](CC(C)C)NC(=O)[C@H](CC(C)C)NC(=O)[C@H](CCCCN)NC(=O)CNC(=O)[C@@H](NC(=O)[C@@H](N)CC(C)C)C(C)C)C(C)C)C(C)C)CSSC[C@@H](C(=O)O)NC1=O,,"RNA-seq, item: Adamts5","mouse, traumatic brain injury model, frontal cortex and hippocampus",dose not given,reference: TBI alone,log2 fold change,-1.13
CCCCc1nc2cc(/C=C/C(=O)NO)ccc2n1CCN(CC)CC,human coronavirus OC43,virus-induced cell killing,MRC-5,maximum over 10 doses,,maximum inhibition,0%
c1ccc(C(NCCNC(c2ccccc2)c2ccccc2)c2ccccc2)cc1,"NMDA receptor, rat, Agonism site",binding,,"10 µM, Eurofins selectivity panel",,inhibition,8%
CCCCCc1cc(O)c2c(c1)OC(C)(C)[C@@H]1CCC(C)=C[C@@H]21,capacitated human sperm,CASA,,"10 µM, 1 h",,Progressive motility,decreased
CC(C)NCCc1c[nH]c2cccc(O)c12.O=C(O)/C=C/C(=O)O,,,C57BL/6J mice,"subcutaneous, 1 mg/kg",reference: pre-session baseline,body temperature change,-0.3 ± 0.3 °C
Cc1cc(C)c(S(=O)(=O)n2cc(C)cc2C)c(C)c1,human coronavirus OC43,virus-induced cell killing,MRC-5,screen,,maximum inhibition,4.7%
CC(C)(C)NCCc1c[nH]c2cccc(O)c12.CC(C)(C)NCCc1c[nH]c2cccc(O)c12.O=C(O)/C=C/C(=O)O,,,C57BL/6J mice,"subcutaneous, 10 mg/kg",reference: pre-session baseline,body temperature change,0 ± 0.1 °C
N.N.[Cl][Pt][Cl],A2780cisR,"cell viability, MTT",,48 h,,IC50,38.3 µM
CCn1cc(C(=O)O)c(=O)c2ccc(C)nc21,Salmonella enterica,,,"20 h, pH 7",,MIC,4 µg/mL
Nc1ncnc2c1ncn2[C@@H]1O[C@@H]2COP(=O)(O)O[C@H]3[C@@H](O)[C@H](n4cnc5c(=O)[nH]cnc54)O[C@@H]3COP(=O)(O)O[C@H]2[C@H]1O,West Nile virus,"RNA sequencing Reactome analysis, item: Interferon Signaling (R-HSA-913531)",HFF-1,"concentration not given, upregulated pathways, together with: West Nile virus infection",reference: WNV-infected without compound,fold enrichment,8.26
C#CCN(C)[C@H](C)Cc1ccccc1,,footprint test,MPTP-induced Parkinson's disease mouse model,10 mg/kg,,stride length,6.81 cm and 6.65 cm and 6.59 cm and 6.42 cm and 6.45 cm and 5.4 cm and 7.74 cm
C[C@]12CCC(=O)C=C1CC[C@@H]1[C@@H]2[C@@H](O)C[C@@]2(C)[C@H]1CC[C@]2(O)C(=O)CO,human coronavirus OC43,virus-induced cell killing,MRC-5,screen,,maximum inhibition,6.8%
COc1c(C)c2c(c(O)c1C/C=C(\C)CCC(=O)O)C(=O)OC2,OVCAR-4,cell proliferation,,,,IC50,0.977 µM
CCCc1cc(-c2nc(-c3ccc(C)cc3)cs2)ccn1,human coronavirus OC43,virus-induced cell killing,MRC-5,screen,,maximum inhibition,4.31%
N=C(N)c1ccc(OCc2ccc(Br)cc2COc2ccc(C(=N)N)cc2)cc1,Escherichia coli,checkerboard,BW25113,"concentration not given, lowest-FICI combination, together with: rifampicin",,MIC of compound in combination,6.25 µg/mL
OC[C@H]1NC[C@H](O)[C@@H](O)[C@@H]1O,human coronavirus OC43,virus-induced cell killing,MRC-5,screen,,maximum inhibition,11.7%
C=CC[C@@H]1c2ccc(OC)c(OC)c2CN2CCc3cc4c(cc3[C@H]12)OCO4,Staphylococcus aureus,,"P2rx7+/+ mice, skin wound infection","dose not given, day 1",reference: day 0,relative wound size,1.24
C#Cc1cccc(Nc2ncnc3cc(OCCOC)c(OCCOC)cc23)c1,human coronavirus OC43,virus-induced cell killing,MRC-5,maximum over 10 doses,,maximum inhibition,0%
CCNCCc1c[nH]c2cccc(O)c12.CCNCCc1c[nH]c2cccc(O)c12.O=C(O)CCC(=O)O,,,C57BL/6J mice,"subcutaneous, 0.03 mg/kg",reference: pre-session,body temperature change,-0.5 ± 0.3 °C

# Repeated from above:
SMILES,target or system,assay,system,conditions,how to read,endpoint,result
Cc1cn(-c2cc(NC(=O)c3ccc(C)c(Nc4nccc(-c5cccnc5)n4)c3)cc(C(F)(F)F)c2)cn1,,,Alzheimer's disease patients,"dose not given, baseline, group mean",direction not given,CDR-SOB score,5.2 ± 1.9
CC[C@H](C)[C@@H]1NC(=O)[C@@H]2CCCN2C(=O)[C@H](CC(C)C)NC(=O)[C@H](CC(C)C)NC(=O)CNC(=O)[C@@H](NC(=O)[C@@H](NC(=O)[C@H](CC(=O)O)NC(=O)CNC(=O)[C@@H](NC(=O)[C@H](C)NC(=O)CNC(=O)[C@H](CCCCN)NC(=O)[C@H](CC(C)C)NC(=O)[C@H](CC(C)C)NC(=O)[C@H](CCCCN)NC(=O)CNC(=O)[C@@H](NC(=O)[C@@H](N)CC(C)C)C(C)C)C(C)C)C(C)C)CSSC[C@@H](C(=O)O)NC1=O,,"RNA-seq, item: Adamts5","mouse, traumatic brain injury model, frontal cortex and hippocampus",dose not given,reference: TBI alone,log2 fold change,-1.13
CCCCc1nc2cc(/C=C/C(=O)NO)ccc2n1CCN(CC)CC,human coronavirus OC43,virus-induced cell killing,MRC-5,maximum over 10 doses,,maximum inhibition,0%
CCCNCCc1c[nH]c2cccc(O)c12.CCCNCCc1c[nH]c2cccc(O)c12.O=C(O)/C=C/C(=O)O,,,C57BL/6J mice,"subcutaneous, 10 mg/kg",reference: pre-session baseline,body temperature change,-0.9 ± 0.3 °C
COc1cc(CCNC(C)c2ccccc2O)c(OC)cc1Br.Cl (stereo not drawn),"5-HT2A L123V mutant, human","Gq dissociation, BRET",,,reference: wild-type 5-HT2A,fold loss in potency,42 fold
